Assay results collected from several papers.
A part holds a random share of what one study measured.

Series 1
Target: Prothrombin, mature alpha-thrombin (F2, Homo sapiens, UniProt P00734)
Method: aptamer microarray, sandwich
Form: DNA with 2'F-ANA
Sample: in vitro
Tested at: 200 nM
Notes: whole 15-mer aptamer, many near background
With: Cy3 exosite-II aptamer, 400 nM
Reading: higher = stronger binding
Measurement: mean fluorescence intensity
Sequence: GGTTGGTGTGGTTGG
2'F-ANA at 1 5 6 8 9 13 14: 54.3 a.u.
2'F-ANA at 1 2 4 5 6 7 8 10 11 12 13 15: 48.8 a.u.
2'F-ANA at 1 4 5 6 9 13 15: 54.5 a.u.
2'F-ANA at 6 9 10 11 12 14: 174 a.u.
2'F-ANA at 1 3 4 5 7 10 14 15: 46.7 a.u.
2'F-ANA at 3 5 6 8 9 12 14 15: 63.1 a.u.
2'F-ANA at 5 7 13 15: 57.3 a.u.
2'F-ANA at 1 4 6 8 9: 125 a.u.
2'F-ANA at 1 2 3 9 10: 67.7 a.u.
2'F-ANA at 2 5 6 8 12 13: 145 a.u.
2'F-ANA at 4 7 8 9 11 14: 93.8 a.u.
2'F-ANA at 1 2 3 5 6 7 9 14 15: 62.2 a.u.
2'F-ANA at 1 2 3 4 5 9 12 14 15: 48.4 a.u.
2'F-ANA at 3 5 6 8 10 11 13: 51.9 a.u.
2'F-ANA at 2 3 4 5 6 7 8 9 10 13 14: 50.4 a.u.
2'F-ANA at 1 2 4 7 10 12 14 15: 46.1 a.u.
2'F-ANA at 1 4 5 6 9 10 11 12 13 14 15: 54.3 a.u.
2'F-ANA at 1 5 7 9 11 13: 50 a.u.
2'F-ANA at 1 2 6 7 9 11 12 14: 54.8 a.u.
2'F-ANA at 5 6 9 10 11 12 13: 49.4 a.u.
2'F-ANA at 1 6 7 8 10 11 12 13: 62.8 a.u.
2'F-ANA at 2 5 6 10 11 12: 48.5 a.u.
2'F-ANA at 3 6 7 8 11 12 14: 565 a.u.
2'F-ANA at 4 5 6 7 9 10 12 13 14: 55.5 a.u.
2'F-ANA at 2 4 6 9 10 11 12 15: 103 a.u.

Series 2
Target: Histone acetyltransferase KAT6A, both winged helices, GST fusion (KAT6A, Homo sapiens, UniProt Q92794, residues 1-181)
Method: protein binding microarray
Form: double-stranded DNA, one strand shown
Sample: in vitro
Tested at: not given
Notes: 8-mer, flanks averaged, mean of 2 arrays, mostly near background
Relative to: not given
Reading: higher = stronger binding
Measurement: E-score
Construct (chain): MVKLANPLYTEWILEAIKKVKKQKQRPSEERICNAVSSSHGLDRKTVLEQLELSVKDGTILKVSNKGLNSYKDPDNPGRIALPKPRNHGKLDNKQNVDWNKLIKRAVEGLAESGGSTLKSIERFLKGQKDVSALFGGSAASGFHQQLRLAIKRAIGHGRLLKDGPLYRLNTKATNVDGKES
GACTAACC: -0.0955
GTGATGAA: -0.133
GTAAGGAC: 0.102
ACTTTACG: 0.0126
ATTTACTA: -0.0562
AAAGATGG: -0.0154
GCTCTGCC: -0.0477
AAGCTACC: -0.021
CATCATCC: -0.0266
CGATCGCG: 0.313
CACTGGCG: 0.0627
ACCTGGAC: -0.124
CTCTGCGC: 0.256
TGCACGAA: -0.0529
ACAGGGGA: -0.157
CAAACTAA: -0.0237
CTCGAATA: -0.165
GCATATGA: 0.0601

Series 3
Target: RING finger protein unkempt homolog, zinc fingers 1-6, SBP tag (UNK, Homo sapiens, UniProt Q9C0B0, residues 30-357)
Chain of UniProt Q9C0B0 (30-357, looked up): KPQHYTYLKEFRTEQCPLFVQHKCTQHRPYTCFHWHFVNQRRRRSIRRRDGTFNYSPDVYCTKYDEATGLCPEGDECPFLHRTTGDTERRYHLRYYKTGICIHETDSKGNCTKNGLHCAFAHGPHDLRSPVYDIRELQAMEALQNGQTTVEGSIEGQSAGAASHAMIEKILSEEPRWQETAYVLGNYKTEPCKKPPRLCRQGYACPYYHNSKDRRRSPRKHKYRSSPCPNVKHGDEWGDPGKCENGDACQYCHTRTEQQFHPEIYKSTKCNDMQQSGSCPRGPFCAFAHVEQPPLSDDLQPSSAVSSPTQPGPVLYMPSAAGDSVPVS
Method: RNA Bind-n-Seq
Form: RNA
Sample: in vitro
Tested at: 100 nM
Notes: RNA with constant flanks, vertebrate orthologous sites, ends assumed
Relative to: input RNA pool
Reading: higher = stronger binding
Measurement: bound/input enrichment
Shared flanks, not repeated: GGGAGUUCUACAGUCCGACGAUC … CAACAGAGGAUUGAGCAUCA
ACUAAUUCUAGAGUAGUAUAUGUUUCAUAAAAAGAUGUCUUUAUAAUUGUGUUUGUCAUAUAGUAUUUUGCAAUUUGUACAAUAAGGAUGUUUAGUAGCCAUAUCUUAAUGGCUUUUUUA: 0.905 ratio
AGUCAAUGGAAUUACAUAAUACUGAAGUUGCAGUUGAAAGGGUAUCCCAGUAUGUGUUGAUAGUUACUGAAGGAAUUAGAGCUGGUGUUGCCUUGUAUUUUAGCCCUUGUUUCAGGUUUU: 0.398 ratio
UGAAAAUAACUUCUGUUCCAUUGAGACUAAAAAUAGUCCCAUAAAUAGAAAACUCCUAAGUAACUUUUUUAAAUAAAAAACAUUAAAUUUUGUAAAUCACCUGCUGCCACAAUACAACUG: 0.983 ratio
UUAAGGUUUUUUUUUUUUAAUUUAAUUUUUCCUUUUGGGGGUAAAGUUUGCUCUACCAAAUAGUGAUUGUAACAAAUUUUGAUCUGUUUUGGAUGUUGCUAUAGUGACAUGCAGUUAUAU: 0.739 ratio
AUCCCUCAGUGACAGUAUGCCAUCUGUAGCAGAUUCCCACUCUAGUCAUUUUUCUGAAUUUAGUUGUUCUGACCUAGAAAGCAUGAAGACUUCUUGUAGCCAUGGUUCAACUGAUUAUCA: 3.23 ratio
CAUUGAACCCUGCUGUAUAAUAAACUAUCUUAGACAUUUAUCAACUGUUGAUACAAAUGUUAGUCCCUAACCACUUUUUAUAUGUUUUAAAUUUUUGAAAUUCAAGUGUACCUGCCAUAA: 2.25 ratio
AAUUGAACAAAAAUGUUUCCACUGGCUUUUGCCUGUAAGAAAAAAAUGUACCCGAGCACAUAGAGCUUUUUAAUAGCACUAACCAAUGCCUUUUUAGAUGUAUUUUUGAUGUAUAUAUCU: 0.538 ratio
UUCAGGCACAACUGACUGGUUCUCAACAUUCCUUACAUAAUUAUCUAUCAAAUGCAAGUGUAGUUAAUUUUCAGGAAACAACCAGGCAGUCAUCUUUAUCCUGCAGCCCGGGUGGAAAUU: 0.448 ratio
CUCCCCCUUACCCAUAAAAUAGAACUUUUUAAAAUUGUGUUGCCACCACUGUUUAAAAAAACAAAAAAACAAAAAACAAAAAAAAAACAAAACUUAGCAAUAGUAGAAUAAGAUGCGAAU: 2.64 ratio
AGAGCUCACAAACUGAAAGGAAGACUAUUAAAGAGUUUCUAAUAUUAACUAUUAGAAAGCUAGGAAAGAUUAGGACAAUUUUACAAAUGAGCAAUUAAAAAGAAAAGGAUCUGGGAACUA: 0.447 ratio
AUUUUUUAAAGUUUUUUUAAUUUAAUUUUUCCUUUUGGGGGUAAAGUUUGCUCUACCAAAUAGUGAUCGUAACAAAUUGAUCUGUUUUGGAUGUUGCUAUAGUGACAUGCAGUUAUAUAU: 0.43 ratio

Series 4
Target: RNA binding protein fox-1 homolog 2, RRM domain, GST-SBP tag (RBFOX2, Homo sapiens, UniProt O43251-10, residues 100-194)
Method: RNA Bind-n-Seq
Form: RNA
Sample: in vitro
Tested at: 365 nM
Notes: natural RNA segment, single round, ends assumed
Relative to: no-protein control
Reading: higher = stronger binding
Measurement: RBNS enrichment (R)
Shared flanks, not repeated: GGGAGUUCUACAGUCCGACGAUC … UGGAAUUCUCGGGUGCCAA
Target sequence (chain): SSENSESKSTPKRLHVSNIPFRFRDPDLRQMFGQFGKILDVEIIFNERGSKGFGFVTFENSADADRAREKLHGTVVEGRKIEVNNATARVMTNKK
UUUUUUGUGUUGAGGUGAUGUAGAUAAAUGUAUUUAUAUGCCUAGUUGGAUAUUCAAUAUUAUGAAUAUUAAAAAGGGGGCAAUAAAAGGGUAUGUAAAAUAUGUAUGAA: 3.13
GGAUUAUGUAUUUUUAACUAAGGUGAGACAUUGAUAUAUCCUUUUGCUACAAGCUAUAGCUAAUGUGCUGAGCUUGUGCCUUGGUGAUUGAUUGAUUGAUUGACUGAUUG: 0.325
GCAAGGGCACAAGUCCUGGAUGUUGUGUGUAUCGAGAGGCCAAAGGCUGGUGGCAAGUGCACGGGGCACAGCGGAGUCUGUCCUGUGACGCGCAAGUCUGAGGGUCUGGG: 7.69
GGUCUGGGCCCUGCCCACCCUCCUGCCCUCCCCCAGCCACCUGGCUGCAUUUUUGAAGCUGCCUGGCCCCCAGGGGCCCUGACCUGACCUCUCUCCUCUCCCCUCACCCU: 0.686
UUUUUAAUUCUCUCUUCUCCUCCAGACACAAUGGCACUGCUUAUCUCCGAAAUGGUGUGAUCGUCUCCUCAUUGAGCAGCGGCUGCCACCGCGCUGUGGGUAGUGUGUGA: 0.432
ACACACUUCCAGUCUAGAUGAUGCUUUGUGUGAUACAUUAAGUUCUUAUUUUGGAUUAAAAGAAGUUUUCCAUUUGAUACCUCUCUAAAUUAAAUAAAUUAUAGAAUGUA: 0.574
UAGUGAAGGCCCUGGAUAGGUGGUACCUACUGUCUGACACCCACGGGGAAACUGAGCCAGGUCCAGGCCGAUGAGAAGUUCCCAGUGGGCUGAAGUGGCCACCAGGGGUC: 0.326
UGAUUGUGUUUCGUAAGAGACAACAUGGCCUCCUAAGGUGCAAUCCUGCCGCUAUAGUGAGCUAAUGUCCUGAAUCCAAAGGCUUCAGAAAAUUGCUUUUGCCUUUUUCA: 0.343
CCCAGAAUUAGCCUGAGCUGCUAAGAAUUCCUCAACCCAUUCCUCUAAGCUGAAAAGCACUCUUGUCAGAAUUUAGACCUAACUAAGAUUCAUCAGUUCCUAACCUACUC: 0.658
UUUAAAAUAGAAGAUGUCCCACUUGCCAUUAAAUAUAGAAGCCAACUUUUUACCUUUUGAAAUAUGGCUACAUUUAAAACAAAAUCUCACAGCUCGGUUUUUCUUAUUUG: 0.406
UACUUUUUCUUAAAGCACCCGUUCACCUUCUUGGUUGAAGUUGUGUUAACAAUGCAGUAGCCAGCACGUUCGAGGCGGUUUCCAGGAAGAGUGUGCUUGUCAUCUGCCAC: 0.588
CUCACUCGACCUUGGGAGGCCUCCCACGAAGGGCGAAGAUGGCCGAGAUGAUCCUAAAAAUAACCGAAGAAAGAGAGGACCAACCAGAAUUCCCUUUGGACAUUUGUGUU: 0.383

For quick reference, copied from above (series 4):
UAGUGAAGGCCCUGGAUAGGUGGUACCUACUGUCUGACACCCACGGGGAAACUGAGCCAGGUCCAGGCCGAUGAGAAGUUCCCAGUGGGCUGAAGUGGCCACCAGGGGUC: 0.326
UGAUUGUGUUUCGUAAGAGACAACAUGGCCUCCUAAGGUGCAAUCCUGCCGCUAUAGUGAGCUAAUGUCCUGAAUCCAAAGGCUUCAGAAAAUUGCUUUUGCCUUUUUCA: 0.343
CCCAGAAUUAGCCUGAGCUGCUAAGAAUUCCUCAACCCAUUCCUCUAAGCUGAAAAGCACUCUUGUCAGAAUUUAGACCUAACUAAGAUUCAUCAGUUCCUAACCUACUC: 0.658
UUUAAAAUAGAAGAUGUCCCACUUGCCAUUAAAUAUAGAAGCCAACUUUUUACCUUUUGAAAUAUGGCUACAUUUAAAACAAAAUCUCACAGCUCGGUUUUUCUUAUUUG: 0.406
UACUUUUUCUUAAAGCACCCGUUCACCUUCUUGGUUGAAGUUGUGUUAACAAUGCAGUAGCCAGCACGUUCGAGGCGGUUUCCAGGAAGAGUGUGCUUGUCAUCUGCCAC: 0.588
CUCACUCGACCUUGGGAGGCCUCCCACGAAGGGCGAAGAUGGCCGAGAUGAUCCUAAAAAUAACCGAAGAAAGAGAGGACCAACCAGAAUUCCCUUUGGACAUUUGUGUU: 0.383
